Experimental data pooled from the literature.
Protocols differ between the studies behind these lines. Numbers after ± are the reported error.

SMILES = CC[C@H](C)[C@H](NC(=O)[C@H](CCCNC(=N)N)NC(=O)[C@H](CCCCN)NC(=O)[C@H](Cc1ccc(O)cc1)NC(=O)[C@H](CC(=O)O)NC(=O)[C@H](C)NC(=O)CNC(=O)CCOCCOCCOCCNC(=O)CN1CCN(CC(=O)O)CCN(CC(=O)O)CCN(CC(=O)O)CC1)C(=O)N[C@H](C(=O)N[C@H](C(=O)N[C@@H](CCCCN)C(=O)N[C@H](C(=O)N[C@@H](CC(N)=O)C(N)=O)C(C)C)C(C)C)[C@@H](C)O [copper-64 labelled]; test = ex vivo gamma counting; system = C57BL/6J male mice, B16-F10 tumour, thymus; conditions = intravenous, 1.85 MBq, 20 min; quantity = tissue uptake; value = 1.16 ± 0.226 %ID/g
SMILES = CCn1ccc(-c2cc(-c3cnn(C)c3)cc([C@@H](C)NC(=O)c3cc(OCCN(C)C)ccc3C)c2)n1; tested on = African green monkey cells; conditions = 15.62 µM; quantity = viability; value = 98.9%
SMILES = CN1Cc2cc(Cl)ccc2-n2c(nnc2C2CCN(c3cccc([18F])n3)CC2)C1; system = C57BL/6 mouse male, brain; conditions = intravenous, 3.7 MBq, 15 min; quantity = tissue uptake; value = 0.49 ± 0.1 %ID/g
SMILES = O=C1NC2(CC2)COc2ncc(F)cc2[C@H]2COCCN2c2ccn3ncc1c3n2; system = Sprague-Dawley rat, female, thymus; conditions = oral, 20 mg/kg/day, 4 weeks dosing, end of recovery; quantity = organ-to-body weight ratio; value = 0.115 ± 0.044%
SMILES = Cc1ccc(OC[C@@H]2CCN2C)cc1C(=O)N[C@H](C)c1cc(-c2cnn(C)c2)nc2ccccc12; tested on = African green monkey cells; conditions = 62.5 µM; quantity = viability; value = 91.1%
SMILES = CCCC[C@H]1C(=O)N(C)[C@@H](CCCC)C(=O)N[C@@H](CCCNC(=O)CN2CCN(CC(=O)O)CCN(CC(=O)O)CCN(CC(=O)O)CC2)C(=O)N[C@H](C(=O)NCC(N)=O)CSCC(=O)N[C@@H](Cc2ccc(O)cc2)C(=O)N(C)[C@@H](C)C(=O)N[C@@H](CC(N)=O)C(=O)N2CCC[C@H]2C(=O)N[C@@H](Cc2c[nH]cn2)C(=O)N[C@@H](CC(C)C)C(=O)N(C)CC(=O)N[C@@H](Cc2c[nH]c3ccccc23)C(=O)N[C@@H](CO)C(=O)N[C@@H](Cc2c[nH]c3ccccc23)C(=O)N1C [gallium-68 labelled]; system = NOD/SCID mice with CHO-hPD-L1 xenograft, stomach; conditions = 30 min post injection; quantity = tissue uptake; value = 2.41 ± 0.12 %ID/g
SMILES = C[C@H](O)[C@@H](NC(=O)[C@H]1CCCN1C(=O)[C@@H](CCCCN)NC(=O)[C@@H](CO)NC(=O)[C@@H](Cc1ccc(O)cc1)NC(=O)[C@@H](CC(N)=O)NC(=O)CCOCCOCCOCCNC(=O)CN1CCN(CC(=O)O)CCN(CC(=O)O)CCN(CC(=O)O)CC1)C(=O)N[C@H](CC(=O)O)C(=O)N[C@H](CCCNC(=N)N)C(=O)N[C@H](CCC(N)=O)C(=O)N[C@H](Cc1ccc(O)cc1)C(=O)N[C@H](Cc1c[nH]cn1)C(=O)N[C@H](Cc1ccccc1)C(N)=O [copper-64 labelled]; system = C57BL/6J mice, pancreas; conditions = intravenous, 1.85 MBq, 0.3333 h, radiolabelled; quantity = tissue uptake; value = 0.51 ± 0.08 %ID/g
SMILES = CC[C@H](C)[C@H](NC(=O)[C@H](CCCNC(=N)N)NC(=O)[C@H](CCCCN)NC(=O)[C@H](Cc1ccc(O)cc1)NC(=O)[C@H](CC(=O)O)NC(=O)[C@H](C)NC(=O)CNC(=O)CCOCCOCCOCCNC(=O)CN1CCN(CC(=O)O)CCN(CC(=O)O)CCN(CC(=O)O)CC1)C(=O)N[C@H](C(=O)N[C@@H](CC(C)C)C(=O)N[C@@H](CCCCN)C(=O)N[C@H](C(=O)N[C@@H](CC(N)=O)C(N)=O)C(C)C)[C@@H](C)O [copper-64 labelled]; test = ex vivo gamma counting; system = male C57BL/6J mouse, B16-F10 tumour, B16-F10 tumour; conditions = intravenous, 1.85 MBq, 100 min; quantity = tissue uptake; value = 1.89 ± 0.229 %ID/g
SMILES = CC[C@H](C)[C@H](NC(=O)[C@H](CCCCN)NC(=O)CNC(=O)[C@H](CC(C)C)NC(=O)[C@H](Cc1ccccc1)NC(=O)[C@H](CCCCN)NC(=O)[C@H](CO)NC(=O)[C@H](Cc1ccccc1)NC(=O)[C@H](Cc1c[nH]c2ccccc12)NC(=O)[C@H](CCC(N)=O)NC(=O)[C@@H](NC(=O)[C@H](Cc1ccccc1)NC(=O)CCCCCNC(=O)CN1CCN(CC(=O)O)CCN(CC(=O)O)CCN(CC(=O)O)CC1)C(C)C)C(=O)N[C@@H](CCC(=O)O)C(=O)N1CCC[C@H]1C(=O)N[C@@H](CC(=O)O)C(=O)N[C@H](C(=O)N[C@@H](CO)C(=O)N[C@@H](CCC(N)=O)C(=O)N[C@H](C(=O)N[C@@H](CCC(N)=O)C(=O)N[C@@H](CC(=O)O)C(=O)N1CCC[C@H]1C(=O)N[C@@H](CC(N)=O)C(=O)N[C@@H](CC(=O)O)C(=O)N[C@@H](CCC(N)=O)C(=O)N[C@@H](Cc1ccc(O)cc1)C(=O)N[C@@H](CCC(=O)O)C(=O)N1CCC[C@H]1C(=O)N[C@@H](Cc1ccccc1)C(=O)O)C(C)C)C(C)C [copper-64 labelled]; system = C57BL/6 mice, male, tumour-free, stomach; conditions = 4 h; quantity = tissue uptake; value = 3.72 ± 1.5 %ID/g
SMILES = CC(C)C[C@@H](NC(=O)[C@@H](CCCNC(=N)N)NC(=O)[C@@H](Cc1c[nH]cn1)NC(=O)[C@@H](Cc1c[nH]c2ccccc12)NC(=O)[C@@H](Cc1c[nH]cn1)NC(=O)[C@@H](Cc1ccccc1)NC(=O)[C@H](NC(=O)[C@@H](Cc1ccc(O)cc1)NC(=O)CNC(=O)CNC(=O)CCOCCOCCOCCNC(=O)CN1CCN(CC(=O)O)CCN(CC(=O)O)CC1)[C@H](C)O)C(=O)N[C@H](CC(N)=O)C(=O)N1CCC[C@@H]1C(=O)O [gallium-68 labelled]; test = gamma counting; system = C57BL/6 mice, male, pancreas; conditions = intravenous, 1.85 MBq, 60 min; quantity = tissue uptake; value = 0.55 ± 0.31 %ID/g
SMILES = CSCC[C@H](NC(=O)CNC(=O)[C@H](CCCCN)NC(=O)[C@H](CC(C)C)NC(=O)[C@@H]1CCCN1C(=O)[C@H](CO)NC(=O)[C@H](Cc1c[nH]cn1)NC(=O)[C@H](Cc1c[nH]c2ccccc12)NC(=O)[C@H](CCCNC(=N)N)NC(=O)[C@H](CC(C)C)NC(=O)[C@H](CCCNC(=N)N)NC(=O)[C@H](Cc1c[nH]c2ccccc12)NC(=O)[C@H](CS)NC(=O)CCCCCNC(=O)CN1CCN(CC(=O)O)CCN(CC(=O)O)CCN(CC(=O)O)CC1)C(=O)O [copper-64 labelled]; test = ex vivo biodistribution; system = male C57BL/6J mice, spleen; conditions = intravenous, 1.85 MBq, 2 h, B16-F10 tumour-bearing; quantity = tissue uptake; value = 1.98 %ID/g

Repeated from above:
SMILES = O=C1NC2(CC2)COc2ncc(F)cc2[C@H]2COCCN2c2ccn3ncc1c3n2; system = Sprague-Dawley rat, female, thymus; conditions = oral, 20 mg/kg/day, 4 weeks dosing, end of recovery; quantity = organ-to-body weight ratio; value = 0.115 ± 0.044%
